Assay results collected from several papers.
Compare with care: the assays were run in different laboratories. Numbers after ± are the reported error.
TDP1: Tyrosyl-DNA phosphodiesterase 1 (TDP1, Homo sapiens, UniProt Q9NUW8)
UniProt Q9NUW8, sequence (whole entry, looked up): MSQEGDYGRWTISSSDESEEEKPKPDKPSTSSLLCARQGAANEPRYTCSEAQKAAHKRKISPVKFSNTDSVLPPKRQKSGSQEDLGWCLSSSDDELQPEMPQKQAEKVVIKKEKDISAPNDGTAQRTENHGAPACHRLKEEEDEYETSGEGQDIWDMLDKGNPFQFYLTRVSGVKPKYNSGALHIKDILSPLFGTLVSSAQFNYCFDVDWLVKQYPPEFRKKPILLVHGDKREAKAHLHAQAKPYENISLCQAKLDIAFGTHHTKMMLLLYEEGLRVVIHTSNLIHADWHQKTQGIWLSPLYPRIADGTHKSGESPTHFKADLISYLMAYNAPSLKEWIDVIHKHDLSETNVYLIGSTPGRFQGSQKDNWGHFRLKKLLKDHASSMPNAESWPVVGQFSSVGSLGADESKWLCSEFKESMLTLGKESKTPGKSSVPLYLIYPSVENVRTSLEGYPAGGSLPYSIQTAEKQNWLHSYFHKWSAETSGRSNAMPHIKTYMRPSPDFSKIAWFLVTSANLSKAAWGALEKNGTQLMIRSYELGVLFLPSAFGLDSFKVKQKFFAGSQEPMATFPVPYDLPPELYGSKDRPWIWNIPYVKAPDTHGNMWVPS
Albumin: Albumin (Mus musculus, UniProt P07724)
UniProt P07724, sequence (whole entry, looked up): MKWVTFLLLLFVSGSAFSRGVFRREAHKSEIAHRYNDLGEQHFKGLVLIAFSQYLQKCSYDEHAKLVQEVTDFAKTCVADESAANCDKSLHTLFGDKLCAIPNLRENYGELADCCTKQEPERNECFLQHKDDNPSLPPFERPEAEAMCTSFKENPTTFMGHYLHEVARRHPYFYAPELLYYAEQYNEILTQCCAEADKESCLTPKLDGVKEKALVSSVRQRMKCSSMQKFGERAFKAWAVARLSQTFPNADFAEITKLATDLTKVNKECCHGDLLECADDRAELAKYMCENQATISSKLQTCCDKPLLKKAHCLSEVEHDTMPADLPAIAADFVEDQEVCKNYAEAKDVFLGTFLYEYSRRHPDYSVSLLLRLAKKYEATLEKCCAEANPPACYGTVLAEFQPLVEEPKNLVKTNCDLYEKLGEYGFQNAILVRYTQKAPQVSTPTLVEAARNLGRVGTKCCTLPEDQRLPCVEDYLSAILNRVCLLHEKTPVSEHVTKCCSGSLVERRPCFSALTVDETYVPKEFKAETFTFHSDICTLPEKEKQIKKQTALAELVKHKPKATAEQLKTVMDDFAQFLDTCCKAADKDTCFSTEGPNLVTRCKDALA

Structure (SMILES) | target or system | assay | test system | setting | scale | measurement | result
CNC(=O)C1CCCN(C(=O)C2CC3CCC2N3C(=O)[C@@H]2C[C@@H](O)CN2C(=O)NCc2cccc(Cl)c2F)C1 (mixture of isomers) | CYP3A4 (human) | inhibitor, time-dependent inhibition |  | 16.7 µM, preincubated with NADPH, added: testosterone substrate | reference: negative control | remaining activity | 95.9%
CCN(CC)CC#CCNc1ccnc2cc(Cl)ccc12 | Salmonella typhimurium | mini-Ames test | TA102 | 62.5 µg/well, without S9 |  | revertants per well | 74
COc1ccccc1NC(=O)OC1C(C)C(OC)C=COC2(C)Oc3c(C)c(O)c4c(c3C2=O)C2=NC3(CCN(CC(C)C)CC3)NC2=C(NC(=O)C(C)=CC=CC(C)C(O)C(C)C(O)C1C)C4=O (centres unmarked) | THP-1 derived macrophages |  |  | 30 min | reference: intracellular over extracellular | intracellular/extracellular ratio | 140
COc1ccc(C(=O)c2cc(O)c(=O)c(O)cc2C)cc1 | HepDES19 | cell growth or viability, MTS |  | 72 h |  | CC50 | 27.8 µM
N=C(N)NCCC[C@@H]1NC(=O)[C@H](CCCNC(=N)N)NC(=O)[C@@H](CCCNC(=N)N)NC(=O)[C@H](C(c2ccccc2)c2ccccc2)NC(=O)[C@H](C(c2ccccc2)c2ccccc2)NC(=O)[C@H](C(c2ccccc2)c2ccccc2)NC(=O)[C@H](CCCNC(=N)N)NC1=O | human red blood cells | haemolysis |  | 2 h, 37 °C |  | HC50 | 165 µg/mL
Nc1nc2cc(C(=O)c3ccc(F)cc3)ccc2[nH]1 | Salmonella typhimurium | Ames preincubation test | TA1535 | 156.0 µg/plate, without S9 |  | revertants | 14.7 revertants/plate
CC(C)OCCOCc1ccc(OCC(O)CN(N=O)C(C)C)cc1 (centres unmarked) | Salmonella typhimurium | Ames test | TA1535 | 5 µg/plate, 30 % rat S9 | reference: solvent control | revertant fold increase | 0.9 fold
Cc1cc(O)c(=O)c(O)cc1-c1ccc(C(F)(F)F)cc1 | HepDES19 | cell growth or viability, MTS |  | 72 h |  | CC50 | 6.3 µM
N#C[C@@H]1CC(F)(F)CN1C(=O)CNC(=O)c1ccnc2c(NC(=O)[C@@H](N)CCCCNC(=O)CCOCCOCCOCCOCCOCCOCCNC(=O)CN3CCN(CC(=O)[O-])CCN(CC(=O)[O-])CCN(CC(=O)[O-])CC3)cccc12.[177Lu+3] | U-87 MG tumour model |  | host not given, bone | 24 h, tumour-bearing |  | tracer uptake | 0.22 %ID/g
O=C(O)c1ccc(Nc2c(-c3ccc(CON=Cc4c(Cl)c5cc(Cl)ccc5oc4=O)cc3)nc3cc(-c4ccccc4)ccn23)cc1 (mixture of isomers) | TDP1 | enzyme activity, inhibitor |  | 100 µM, unpurified compound |  | inhibition | 99.4%
COc1cccc(OC)c1-c1cc(C(=O)NC2(C(=O)O)C3CC4CC(C3)CC2C4)nn1-c1ccc(C(=O)N(C)CCCN(C)C(=O)[C@H](CCCCNC(=O)[C@H](CC(C)C)NC(=O)C2OC2C(=O)O)NC(=O)CN2CCN(CC(=O)[O-])CCN(CC(=O)[O-])CCN(CC(=O)[O-])CC2)cc1C(C)C.[177Lu+3] (mixture of isomers) | HT-29 tumour model |  | host not given, blood | 7 days, tumour-bearing |  | tracer uptake | 0.0008 %ID/g
COc1ccc(OC)c(C=NOCc2ccc3nc(-c4ccccc4)c(Nc4ccc(C(=O)O)cc4)n3c2)c1N (mixture of isomers) | TDP1 | enzyme activity, inhibitor |  | 100 µM, unpurified compound |  | inhibition | 19.4%
COc1cccc(OC)c1-c1cc(C(=O)NC2(C(=O)O)C3CC4CC(C3)CC2C4)nn1-c1ccc(C(=O)NCCNC(=O)[C@H](CCCCNC(=O)[C@H](CC(C)C)NC(=O)C2OC2C(=O)O)NC(=O)CN2CCN(CC(=O)[O-])CCN(CC(=O)[O-])CCN(CC(=O)[O-])CC2)cc1C(C)C.[177Lu+3] (mixture of isomers) | HT-29 tumour model |  | host not given, bone | 4 h, tumour-bearing |  | tracer uptake | 0.75 %ID/g
O=c1c(O)ccc(-c2ccncc2)cc1O | HepDES19 | cell growth or viability, MTS |  | 72 h |  | CC50 | 20 µM
COc1cccc(OC)c1-c1cc(C(=O)NC2(C(=O)O)C3CC4CC(C3)CC2C4)nn1-c1ccc(C(=O)N(C)CCOCCOCCN(C)C(=O)[C@H](CCCCNC(=O)[C@H](CC(C)C)NC(=O)C2OC2C(=O)O)NC(=O)CN2CCN(CC(=O)[O-])CCN(CC(=O)[O-])CCN(CC(=O)[O-])CC2)cc1C(C)C.[177Lu+3] (mixture of isomers) | HT-29 tumour model |  | host not given, stomach | 72 h, tumour-bearing |  | tracer uptake | 0.026 %ID/g
N#C[C@@H]1CC(F)(F)CN1C(=O)CNC(=O)c1ccnc2c(NC(=O)CCOCCOCCOCCOCCOCCOCCNC(=O)[C@H](CCCCNC(=O)CN3CCN(CC(=O)[O-])CCN(CC(=O)[O-])CCN(CC(=O)[O-])CC3)NC(=O)CCCc3ccc(I)cc3)cccc12.[177Lu+3] | U-87 MG tumour model |  | host not given, liver | 24 h, tumour-bearing |  | tracer uptake | 2.42 %ID/g

Structure (SMILES) | target or system | assay | test system | setting | scale | measurement | result
C=C(NC(=O)c1csc(-c2nc3c(cc2O)-c2nc(cs2)C(=O)NC(C(C)O)C(=O)NC(=C(C)OC)c2nc(cs2)C(=O)NC2c4nc(cs4)C(=O)NC(COC(=O)c4c5c6c(cccc6n4O)COC(=O)C(OC4CC(C)(O)C(N(C)C)C(C)O4)C2OC5)c2nc-3cs2)n1)C(N)=O (centres unmarked) |  |  | cynomolgus monkey, both sexes, plasma | intravenous infusion, 3 mg/kg, multiple doses, day 7 |  | AUC(0-inf) | 23500 ng·h/mL
CN1CCN(c2ccc3[nH]c(-c4ccc5[nH]c(-c6ccc(OCCCCNC(=O)c7ccc8c(c7)C7(OC8=O)c8ccc(N(C)C)cc8C(C)(C)c8cc(N(C)C)ccc87)cc6)nc5c4)nc3c2)CC1 | Albumin |  | PBS | 1 µM, 1 h, added: 25 mg/mL albumin |  | fluorescence quantum yield | 0.07 ± 0.02
Cc1cc(O)c(=O)c(O)cc1C(=O)C(C)C | HepDES19 | cell growth or viability, MTS |  | 72 h |  | CC50 | > 100 µM
N=C(N)NCCC[C@@H]1NC(=O)[C@H](CCCNC(=N)N)NC(=O)[C@@H](CCCNC(=N)N)NC(=O)[C@@H](CCCNC(=N)N)NC(=O)[C@@H](C(c2ccccc2)c2ccccc2)NC(=O)[C@@H](Cc2c[nH]c3ccccc23)NC(=O)[C@@H](C(c2ccccc2)c2ccccc2)NC1=O | human red blood cells | haemolysis |  | 2 h, 37 °C |  | HC50 | 305 µg/mL
O=C1NC2(CC2)COc2ncc(F)cc2[C@H]2COCCN2c2ccn3ncc1c3n2 | Salmonella typhimurium | Ames test | TA97a | 50 µg/plate, 48 h, added: rat liver S9 |  | revertant colonies | 104 ± 6 revertants/plate
COC(=O)Nc1nc2cc(C(O)c3ccc(F)cc3)ccc2[nH]1 (centres unmarked) | Escherichia coli | Ames preincubation test | WP2 uvrA | 54.7 µg/plate, without S9 |  | revertants | 40.3 revertants/plate
CCOC(=O)c1cc(O)c(=O)c(O)cc1C | HepDES19 | cell growth or viability, MTS |  | 72 h |  | CC50 | 93 µM
CN(C)c1ccc2c(c1)C(C)(C)c1cc(N(C)C)ccc1C21OC(=O)c2ccc(C(=O)O)cc21 | Albumin | binding, fluorescence titration | PBS |  |  | Kd | 126 ± 23 µM
N#C[C@@H]1CCCN1C(=O)CNC(=O)c1ccnc2ccc(OCCCN3CCN(C(=O)CCc4ccc5c(c4)CN4CCN(Cc6cc(CCC(=O)O)ccc6O)CC(=O)[O][Al-]([18F])([O]C(=O)C4)[O]5)CC3)cc12 (some centres unmarked) | U-87 MG tumour model |  | host not given, muscle | 1 h, tumour-bearing |  | tracer uptake | 1.35 %ID/g
O=C1OCc2cc(O)c(=O)c(O)cc21 | HepDES19 | cell growth or viability, MTS |  | 72 h |  | CC50 | 100 µM
COC(=O)CC(C)c1nn(C)c2nc(N)[nH]c(=O)c2c1=O (centres unmarked) | Escherichia coli | LC-MS/MS | BW25113 | 100 µM, 10 min, 37 °C |  | intracellular accumulation | 34.9 µM
CN(C)c1ccc2c(c1)C(C)(C)c1cc(N(C)C)ccc1C21OC(=O)c2cc(C(=O)O)ccc21 | Albumin | binding, fluorescence titration | PBS |  |  | Kd | 184 ± 114 µM
Cc1ccccc1C(=O)Oc1cccccc1=O | HepDES19 | cell growth or viability, MTS |  | 72 h |  | CC50 | > 100 µM
CC(C)Cc1ccc(C(C)C(=O)N[C@@H](CCCCNC(=O)CCOCCOCCOCCOCCOCCOCCNC(=O)CN2CCN(CC(=O)[O-])CCN(CC(=O)[O-])CCN(CC(=O)[O-])CC2)C(=O)Nc2cccc3c(C(=O)NCC(=O)N4CC(F)(F)C[C@H]4C#N)ccnc23)cc1.[177Lu+3] (some centres unmarked) | U-87 MG tumour model |  | host not given, tumour | 24 h, tumour-bearing |  | tracer uptake | 9.1 %ID/g
Cc1cc(O)c(=O)c(O)cc1-c1cccc2ccccc12 | HepDES19 | cell growth or viability, MTS |  | 72 h |  | CC50 | 28.9 µM
O=C1C2CC3CC1CC(C(=O)N1CCN(c4ccc([N+](=O)[O-])c5ncccc45)CC1)(C3)C2 | Salmonella typhimurium | Ames test | TA1535 | 0.13 µg/well, without S9 activation |  | revertant colony count | 2 colonies/well

For quick reference, copied from above:
Structure (SMILES) | target or system | assay | test system | setting | scale | measurement | result
COc1ccc(C(=O)c2cc(O)c(=O)c(O)cc2C)cc1 | HepDES19 | cell growth or viability, MTS |  | 72 h |  | CC50 | 27.8 µM
COc1cccc(OC)c1-c1cc(C(=O)NC2(C(=O)O)C3CC4CC(C3)CC2C4)nn1-c1ccc(C(=O)NCCNC(=O)[C@H](CCCCNC(=O)[C@H](CC(C)C)NC(=O)C2OC2C(=O)O)NC(=O)CN2CCN(CC(=O)[O-])CCN(CC(=O)[O-])CCN(CC(=O)[O-])CC2)cc1C(C)C.[177Lu+3] (mixture of isomers) | HT-29 tumour model |  | host not given, bone | 4 h, tumour-bearing |  | tracer uptake | 0.75 %ID/g
COc1cccc(OC)c1-c1cc(C(=O)NC2(C(=O)O)C3CC4CC(C3)CC2C4)nn1-c1ccc(C(=O)N(C)CCCN(C)C(=O)[C@H](CCCCNC(=O)[C@H](CC(C)C)NC(=O)C2OC2C(=O)O)NC(=O)CN2CCN(CC(=O)[O-])CCN(CC(=O)[O-])CCN(CC(=O)[O-])CC2)cc1C(C)C.[177Lu+3] (mixture of isomers) | HT-29 tumour model |  | host not given, blood | 7 days, tumour-bearing |  | tracer uptake | 0.0008 %ID/g
COc1cccc(OC)c1-c1cc(C(=O)NC2(C(=O)O)C3CC4CC(C3)CC2C4)nn1-c1ccc(C(=O)N(C)CCOCCOCCN(C)C(=O)[C@H](CCCCNC(=O)[C@H](CC(C)C)NC(=O)C2OC2C(=O)O)NC(=O)CN2CCN(CC(=O)[O-])CCN(CC(=O)[O-])CCN(CC(=O)[O-])CC2)cc1C(C)C.[177Lu+3] (mixture of isomers) | HT-29 tumour model |  | host not given, stomach | 72 h, tumour-bearing |  | tracer uptake | 0.026 %ID/g
O=C1C2CC3CC1CC(C(=O)N1CCN(c4ccc([N+](=O)[O-])c5ncccc45)CC1)(C3)C2 | Salmonella typhimurium | Ames test | TA1535 | 0.13 µg/well, without S9 activation |  | revertant colony count | 2 colonies/well
